Measured values from different studies.
± gives the spread as reported.

C[C@]1(O)C[C@@](N)(c2ccc(-c3nc4n(c3-c3ccccc3)COc3ccncc3-4)cc2)C1 — result for “patients with grade ≥3 Dyspnea TEAE”: 11.8% (human, advanced or metastatic solid tumours; dose not given, all patients).
For COc1ncnn2ccc(-c3cnc4nc(C)n(Cc5nnc([C@@H](C)F)o5)c4c3)c12, “patients with tumour lysis syndrome” read 0% (human; oral, dose not given, grade 4).
Under “treatment-related adverse event incidence”, COc1ccc(-c2c(-c3ccc(C#N)c(F)c3)nc(N3CCC(N)CC3)n(C)c2=O)cc1F is recorded as 0% (item: Vomiting; relapsed/refractory marginal zone lymphoma patients; oral, 60 mg, grade 3 to 4, dose expansion).
C=CC(=O)N1CC[C@H](n2nc(C#Cc3cc(OC)cc(OC)c3)c3c(N)ncnc32)C1 — result for “adverse drug reaction incidence”: 0% (patients with advanced solid tumours; oral, dose not given, Dysgeusia, any grade, QD, added: ferric citrate hydrate).
For CC[C@H](C)[C@H](NC(=O)[C@H](C)NC(=O)[C@H](CCCCN)NC(=O)[C@H](CC(C)C)NC(=O)[C@H](C)NC(=O)[C@@H](NC(=O)[C@H](Cc1c[nH]cn1)NC(=O)[C@H](CC(C)C)NC(=O)[C@@H](NC(=O)[C@@H](NC(=O)[C@H](CCCCN)NC(=O)[C@H](C)NC(=O)[C@H](C)NC(=O)[C@H](CO)NC(=O)[C@H](CCCCN)NC(=O)[C@H](Cc1ccccc1)NC(=O)[C@@H](NC(=O)[C@H](CCCCN)NC(=O)[C@H](CC(C)C)NC(=O)[C@H](Cc1ccccc1)NC(=O)[C@H](CO)NC(=O)[C@H](CCCCN)NC(=O)[C@H](Cc1c[nH]c2ccccc12)NC(=O)[C@H](CCCCN)NC(C)=O)[C@@H](C)O)[C@@H](C)O)C(C)C)[C@@H](C)O)C(=O)N[C@@H](CO)C(=O)N[C@@H](CO)C(N)=O, the MTD was over 200 mg/pig (minipig; topical on skin, 30 days).
Under “median Tmax at steady state”, O[C@H]1CCCN[C@@H]1CCCn1cnc2c(Cl)c(Cl)ccc21 is recorded as 4 h (healthy humans, plasma; oral, 150 mg twice daily).
COc1cc2c(Oc3ccc4[nH]c(C)cc4c3F)ccnc2cc1OCC1(N)CC1 — result for “grade 1 or 2 bone pain”: 0% (paediatric recurrent refractory sarcoma; 12 mg).
O=[N+]([O-])NC1=NCCN1Cc1ccc(Cl)nc1 — result for “dose fraction in milk fat”: 2.5% (whole cow milk; 20 nM nominal).
CC(=O)c1c(C)c2cnc(Nc3ccc(C4CCN(CCS(C)(=O)=O)CC4)cn3)nc2n(C2CCCC2)c1=O has a lethal dose of 180 mg/kg/day (Sprague-Dawley rat male and female; oral gavage twice daily, 4 weeks).
C[C@@H](NC(=O)N1C(=O)[C@H](Cc2ccnc(N)c2)[C@H]1C(=O)O)C1CCCCC1: “subjects with AEs leading to death” 0% (healthy Chinese adult volunteers; continuous intravenous infusion, dose not given, 5.0 days, all doses pooled).
C[C@H]1CN(C(=O)CC#N)[C@]12CCN(c1ncnc3[nH]ccc13)C2 gave an NOAEL of 20 mg/kg (minipig, male and female; dermal, 9 months, highest dose given).
C=CC[N+]1([C@H]2C[C@H]3[C@@H]4CC[C@H]5C[C@H](O)[C@@H](N6CCOCC6)C[C@]5(C)[C@H]4CC[C@]3(C)[C@H]2OC(C)=O)CCCC1 gave a Cmax of 287 ng/mL (Sprague Dawley rat, plasma; intravenous, 0.2 mg/kg, added: vehicle IV).
The freeze-thaw stability of CC(C)C(=O)OC[C@H]1O[C@@H](n2ccc(NO)nc2=O)[C@H](O)[C@@H]1O is reported as 99.8 ± 1.01% (rat fetus dialysate; 250 ng/mL, high concentration, three cycles, added: NHC 1000 ng/mL).

A few entries again:
COc1cc2c(Oc3ccc4[nH]c(C)cc4c3F)ccnc2cc1OCC1(N)CC1 — result for “grade 1 or 2 bone pain”: 0% (paediatric recurrent refractory sarcoma; 12 mg).
O=[N+]([O-])NC1=NCCN1Cc1ccc(Cl)nc1 — result for “dose fraction in milk fat”: 2.5% (whole cow milk; 20 nM nominal).
